Assay results of several laboratories.
Protocols differ between the studies behind these lines. ± gives the spread as reported.
YWHAZ: 14-3-3 protein zeta/delta (YWHAZ, Homo sapiens, UniProt P63104)
Chain of UniProt P63104 (whole entry, looked up): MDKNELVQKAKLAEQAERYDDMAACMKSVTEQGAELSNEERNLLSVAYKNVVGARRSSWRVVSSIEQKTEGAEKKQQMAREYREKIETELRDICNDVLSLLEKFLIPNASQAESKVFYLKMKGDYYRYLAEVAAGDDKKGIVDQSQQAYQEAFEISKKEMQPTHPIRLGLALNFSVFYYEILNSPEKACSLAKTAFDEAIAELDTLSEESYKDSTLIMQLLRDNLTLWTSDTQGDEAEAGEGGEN
LRP6 E1 domain: Low-density lipoprotein receptor-related protein 6, E1 domain (LRP6, Homo sapiens, UniProt O75581)
Chain of UniProt O75581 (whole entry, looked up): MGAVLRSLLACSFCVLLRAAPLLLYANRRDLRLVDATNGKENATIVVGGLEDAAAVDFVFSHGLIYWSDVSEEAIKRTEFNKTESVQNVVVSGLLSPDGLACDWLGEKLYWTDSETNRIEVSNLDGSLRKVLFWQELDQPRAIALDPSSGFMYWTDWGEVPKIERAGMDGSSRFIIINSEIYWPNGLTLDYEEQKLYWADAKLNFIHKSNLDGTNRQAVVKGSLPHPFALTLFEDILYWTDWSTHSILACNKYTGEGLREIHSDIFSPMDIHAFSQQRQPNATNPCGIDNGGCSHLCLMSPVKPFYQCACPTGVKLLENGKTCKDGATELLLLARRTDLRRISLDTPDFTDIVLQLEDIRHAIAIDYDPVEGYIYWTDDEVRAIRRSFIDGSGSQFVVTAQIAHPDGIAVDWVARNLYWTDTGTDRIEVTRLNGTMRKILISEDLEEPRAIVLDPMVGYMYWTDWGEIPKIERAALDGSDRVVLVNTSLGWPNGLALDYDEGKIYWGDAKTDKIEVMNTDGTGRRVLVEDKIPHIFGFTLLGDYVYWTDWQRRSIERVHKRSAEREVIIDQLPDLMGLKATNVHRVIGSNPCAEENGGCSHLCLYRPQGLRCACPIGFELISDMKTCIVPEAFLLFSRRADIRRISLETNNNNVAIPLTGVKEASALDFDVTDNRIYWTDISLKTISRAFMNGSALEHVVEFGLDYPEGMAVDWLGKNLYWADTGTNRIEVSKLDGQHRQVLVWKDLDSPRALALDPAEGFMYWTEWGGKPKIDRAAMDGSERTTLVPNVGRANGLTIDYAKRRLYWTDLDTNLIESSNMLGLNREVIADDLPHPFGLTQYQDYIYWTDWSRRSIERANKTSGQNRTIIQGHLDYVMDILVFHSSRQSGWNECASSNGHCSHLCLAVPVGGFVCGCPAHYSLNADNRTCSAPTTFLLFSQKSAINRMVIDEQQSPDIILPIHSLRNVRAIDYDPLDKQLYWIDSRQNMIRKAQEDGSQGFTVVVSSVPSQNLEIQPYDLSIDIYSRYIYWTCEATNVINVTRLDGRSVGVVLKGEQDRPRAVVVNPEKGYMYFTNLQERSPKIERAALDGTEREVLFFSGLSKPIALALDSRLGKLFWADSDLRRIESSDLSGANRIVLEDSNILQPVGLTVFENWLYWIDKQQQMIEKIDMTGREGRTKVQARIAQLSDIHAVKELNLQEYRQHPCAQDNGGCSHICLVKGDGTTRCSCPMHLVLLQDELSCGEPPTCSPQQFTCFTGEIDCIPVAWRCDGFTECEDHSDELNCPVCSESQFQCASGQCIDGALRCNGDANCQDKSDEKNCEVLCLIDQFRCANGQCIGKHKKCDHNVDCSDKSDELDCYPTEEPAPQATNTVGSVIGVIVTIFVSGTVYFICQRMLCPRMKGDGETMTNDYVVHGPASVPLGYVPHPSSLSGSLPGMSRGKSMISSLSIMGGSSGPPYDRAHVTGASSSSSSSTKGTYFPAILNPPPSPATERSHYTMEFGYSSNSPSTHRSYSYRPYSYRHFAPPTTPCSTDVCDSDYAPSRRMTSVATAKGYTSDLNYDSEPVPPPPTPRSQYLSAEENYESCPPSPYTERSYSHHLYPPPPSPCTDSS
Chain of UniProt P97287 (152-308, looked up): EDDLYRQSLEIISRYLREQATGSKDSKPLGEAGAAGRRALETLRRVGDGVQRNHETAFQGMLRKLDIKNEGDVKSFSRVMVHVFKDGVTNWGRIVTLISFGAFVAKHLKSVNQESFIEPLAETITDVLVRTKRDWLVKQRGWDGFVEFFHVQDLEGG
Chain of UniProt P46109 (whole entry, looked up): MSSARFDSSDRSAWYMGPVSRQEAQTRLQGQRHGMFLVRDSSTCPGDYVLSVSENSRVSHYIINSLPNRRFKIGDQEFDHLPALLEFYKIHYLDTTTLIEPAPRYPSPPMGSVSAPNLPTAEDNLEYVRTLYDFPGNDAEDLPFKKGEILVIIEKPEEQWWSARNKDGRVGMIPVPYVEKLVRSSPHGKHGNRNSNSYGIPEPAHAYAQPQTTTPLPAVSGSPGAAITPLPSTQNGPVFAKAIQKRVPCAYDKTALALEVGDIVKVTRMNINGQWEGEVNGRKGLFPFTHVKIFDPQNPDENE
Chain of UniProt P27348 (whole entry, looked up): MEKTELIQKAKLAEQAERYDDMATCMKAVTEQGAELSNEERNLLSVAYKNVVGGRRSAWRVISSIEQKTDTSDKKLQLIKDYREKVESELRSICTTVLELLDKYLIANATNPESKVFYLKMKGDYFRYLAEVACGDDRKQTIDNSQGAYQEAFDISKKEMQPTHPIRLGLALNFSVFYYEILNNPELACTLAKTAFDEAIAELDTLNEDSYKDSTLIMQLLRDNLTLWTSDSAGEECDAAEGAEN
Chain of UniProt P83916 (whole entry, unmodified, looked up): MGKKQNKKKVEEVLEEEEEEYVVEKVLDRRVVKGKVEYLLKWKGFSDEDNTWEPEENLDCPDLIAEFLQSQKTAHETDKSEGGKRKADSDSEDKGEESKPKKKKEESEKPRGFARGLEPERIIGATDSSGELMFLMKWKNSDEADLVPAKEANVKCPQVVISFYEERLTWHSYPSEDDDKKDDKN
Chain of UniProt Q14145 (whole entry, looked up): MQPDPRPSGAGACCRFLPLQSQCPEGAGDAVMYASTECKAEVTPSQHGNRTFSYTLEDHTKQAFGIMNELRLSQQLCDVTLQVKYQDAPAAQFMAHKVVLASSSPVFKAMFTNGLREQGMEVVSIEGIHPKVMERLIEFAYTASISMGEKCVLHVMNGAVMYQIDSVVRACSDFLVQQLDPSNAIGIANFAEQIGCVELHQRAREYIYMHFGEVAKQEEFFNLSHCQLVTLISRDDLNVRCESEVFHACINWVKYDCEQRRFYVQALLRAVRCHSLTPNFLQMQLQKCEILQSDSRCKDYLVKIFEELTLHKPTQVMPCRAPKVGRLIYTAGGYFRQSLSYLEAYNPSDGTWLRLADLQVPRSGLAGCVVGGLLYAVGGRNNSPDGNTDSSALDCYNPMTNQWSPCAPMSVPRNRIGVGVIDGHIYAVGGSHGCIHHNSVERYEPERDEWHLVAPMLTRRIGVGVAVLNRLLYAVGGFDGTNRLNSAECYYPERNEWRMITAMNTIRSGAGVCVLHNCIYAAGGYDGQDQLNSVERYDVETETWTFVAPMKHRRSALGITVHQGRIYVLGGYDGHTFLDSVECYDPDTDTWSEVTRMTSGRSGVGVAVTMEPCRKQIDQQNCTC
Chain of UniProt Q8NEZ5 (whole entry, looked up): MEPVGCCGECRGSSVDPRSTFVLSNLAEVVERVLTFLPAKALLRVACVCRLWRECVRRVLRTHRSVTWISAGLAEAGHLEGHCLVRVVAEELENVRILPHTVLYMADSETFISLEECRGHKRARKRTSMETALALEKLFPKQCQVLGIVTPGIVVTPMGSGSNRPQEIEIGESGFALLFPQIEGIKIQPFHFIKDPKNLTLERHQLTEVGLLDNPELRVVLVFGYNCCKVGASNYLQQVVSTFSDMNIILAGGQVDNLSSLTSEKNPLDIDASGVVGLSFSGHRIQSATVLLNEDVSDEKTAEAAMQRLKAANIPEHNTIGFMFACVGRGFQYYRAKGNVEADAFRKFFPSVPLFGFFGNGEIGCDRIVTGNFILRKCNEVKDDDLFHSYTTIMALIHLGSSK
Chain of UniProt Q9H4M9 (whole entry, looked up): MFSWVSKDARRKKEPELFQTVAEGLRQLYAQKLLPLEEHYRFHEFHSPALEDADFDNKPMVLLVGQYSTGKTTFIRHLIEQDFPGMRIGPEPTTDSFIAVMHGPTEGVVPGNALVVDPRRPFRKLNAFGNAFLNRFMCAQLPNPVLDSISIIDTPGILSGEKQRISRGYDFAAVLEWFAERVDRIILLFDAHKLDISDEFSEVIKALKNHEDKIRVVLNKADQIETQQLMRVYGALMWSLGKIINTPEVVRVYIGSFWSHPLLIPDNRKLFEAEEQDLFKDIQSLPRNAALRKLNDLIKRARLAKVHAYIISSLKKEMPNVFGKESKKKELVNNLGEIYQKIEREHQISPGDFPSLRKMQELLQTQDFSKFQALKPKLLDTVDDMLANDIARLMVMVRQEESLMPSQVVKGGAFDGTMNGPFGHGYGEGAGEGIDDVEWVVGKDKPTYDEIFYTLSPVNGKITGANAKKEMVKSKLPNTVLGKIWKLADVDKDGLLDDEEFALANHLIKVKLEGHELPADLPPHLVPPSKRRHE
Chain of UniProt Q9H7M9 (whole entry, looked up): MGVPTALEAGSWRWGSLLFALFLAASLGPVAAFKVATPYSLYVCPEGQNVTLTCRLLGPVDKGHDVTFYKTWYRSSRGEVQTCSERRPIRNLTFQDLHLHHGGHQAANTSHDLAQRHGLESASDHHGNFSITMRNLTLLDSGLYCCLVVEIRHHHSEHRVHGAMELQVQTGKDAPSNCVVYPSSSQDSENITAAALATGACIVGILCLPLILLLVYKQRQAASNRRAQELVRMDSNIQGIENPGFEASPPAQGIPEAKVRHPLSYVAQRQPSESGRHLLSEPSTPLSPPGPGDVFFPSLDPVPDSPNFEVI

CC(=O)NC1C(O)OC(CO)C(OC2OC(CO)C(OC3OC(CO)C(O)C(O)C3O)C(O)C2O)C1O (stereo not drawn)
Kd (sly (Streptococcus suis, UniProt Q55996, S396A); binding): 1.77 µM

CC[C@H](C)[C@@H]1NC(=O)[C@@H]2CCCN2C(=O)[C@H](Cc2c[nH]c3ccccc23)NC(=O)[C@H](CO)NC(=O)[C@H](Cc2c[nH]c3ccccc23)NC(=O)[C@H](CC(N)=O)NC(=O)[C@H](CCCCN)NC(=O)[C@H](CCSC)NC(=O)[C@@H]2CSCCC(=O)N3CN(CN(C3)C(=O)CCSC[C@H](NC(=O)[C@H](C)N)C(=O)N3CCC[C@H]3C(=O)N[C@@H](Cc3ccccc3)C(=O)NCC(=O)N2)C(=O)CCSC[C@@H](C(=O)N[C@H](C(=O)N[C@@H](CC(N)=O)C(=O)N[C@@H](CCCCN)C(=O)N(C)CC(=O)N(C)CC(=O)N(C)CC(=O)N(C)CC(=O)N(C)CC(=O)N(C)CC(=O)N[C@@H](CCCCNC(=O)c2ccc(C(=O)O)c(-c3c4ccc(=O)cc-4oc4cc(O)ccc34)c2)C(N)=O)[C@@H](C)O)NC(=O)[C@H](Cc2c[nH]c3ccccc23)NC1=O
Kd (Cell adhesion molecule 3 (CADM3, Homo sapiens, UniProt Q8N126); fluorescence polarization): > 2 µM

CC[C@H](C)[C@H](NC(=O)[C@H](CC(=O)O)NC(=O)[C@H](CCCNC(=N)N)NC(=O)[C@@H](NC(=O)c1ccc2c(c1)C(=O)OC21c2ccc(N(C)C)cc2Oc2cc(N(C)C)ccc21)[C@@H](C)O)C(=O)N[C@@H](Cc1ccc(O)cc1)C(=O)N[C@@H](CCC(=O)O)C(=O)N[C@H](C(=O)N[C@@H](CC(=O)O)C(=O)N[C@@H](Cc1ccc(O)cc1)C(=O)N[C@@H](Cc1ccc(OP(=O)(O)O)cc1)C(=O)N[C@@H](CCCNC(=N)N)C(=O)N[C@@H](CCCCN)C(=O)NCC(=O)NCC(=O)N[C@@H](CCCCN)C(=O)NCC(=O)N[C@@H](CC(C)C)C(=O)N[C@@H](CC(=O)O)C(=O)O)[C@@H](C)O
Kd (Crk-like protein, SH2 domain (Homo sapiens, UniProt P46109); binding): 1.83 µM

CC(=O)N[C@@H](CCCNC(=N)N)C(=O)N[C@H](C(=O)N1CCC[C@H]1C(=O)N[C@@H](COP(=O)(O)O)C(=O)N[C@@H](CC(C)C)C(=O)N1CCC[C@H]1C(=O)N[C@H](C(=O)N1CCC[C@H]1C(c1ccccc1)c1ccccc1)[C@@H](C)O)[C@@H](C)O
Kd (YWHAZ; isothermal titration calorimetry; second duplicate): 4.2 µM

CC[C@H](C)[C@H](NC(=O)[C@H](CCC(=O)O)NC(=O)[C@H](CCCNC(=N)N)NC(=O)[C@H](C)NC(=O)[C@H](Cc1c[nH]c2ccccc12)NC(=O)[C@H](CCC(=O)O)NC(=O)[C@H](CCC(=O)O)NC(=O)[C@H](CCC(=O)O)NC(C)=O)C(=O)NCC(=O)N[C@@H](C)C(=O)N[C@@H](CCC(N)=O)C(=O)N[C@@H](CC(C)C)C(=O)N[C@@H](CCCNC(=N)N)C(=O)N[C@@H](CCCNC(=N)N)C(=O)N[C@@H](C)C(=O)N[C@@H](C)C(=O)N[C@@H](CC(=O)O)C(=O)N[C@@H](CC(=O)O)C(=O)N[C@@H](CC(C)C)C(=O)N[C@@H](CC(N)=O)C(=O)N[C@@H](C)C(=O)N[C@@H](CCC(N)=O)C(=O)N[C@@H](Cc1csc2ccccc12)C(=O)N[C@@H](CCC(=O)O)C(=O)N[C@@H](CCCNC(=N)N)C(=O)N[C@@H](CCCNC(=N)N)C(=O)N[C@@H](CCCNC(=N)N)C(N)=O
Kd (Induced myeloid leukemia cell differentiation protein Mcl-1 homolog, residues 152-308 (Mus musculus, UniProt P97287); binding, SPR; 0.2% DMSO): 0.0045 µM

CC[C@H](C)[C@H](NC(=O)[C@H](CO)NC(=S)Nc1ccc2c(c1)C(=O)OC21c2ccc(O)cc2Oc2cc(O)ccc21)C(=O)N[C@@H](CCC(=O)O)C(=O)N[C@@H](CCCCN)C(=O)NCC(=O)NCC(=O)N[C@@H](CCP(=O)(O)O)C(=O)N[C@@H](CC(C)C)C(=O)N1CCC[C@H]1C(=O)N[C@@H](CCCCN)C(=O)N[C@H](C(=O)N[C@@H](Cc1c[nH]c2ccccc12)C(=O)N[C@@H](CC(C)C)C(=O)N[C@H](C(=O)N1CCC[C@H]1C(=O)N[C@@H](CCCNC(=N)N)C(=O)O)C(C)C)C(C)C
Kd (14-3-3 protein theta (Homo sapiens, UniProt P27348); binding, fluorescence anisotropy; pH 7.5, FITC-labelled phosphopeptide titration): 88 µM

CSCC[C@@H]1NC(=O)[C@H](CCC(N)=O)NC(=O)[C@H](CCCCN)NC(=O)[C@@H](NC(=O)CN)CSSC[C@@H]2NC(=O)CNC(=O)[C@H](C)NC(=O)[C@H](CC(C)C)NC(=O)[C@@H]3CSSC[C@@H](C(=O)NCC(=O)O)NC(=O)[C@H](Cc4ccccc4)NC(=O)CNC(=O)[C@H](CC(N)=O)NC(=O)[C@@H]4CCCN4C(=O)CNC(=O)[C@H](CSSC[C@H](NC(=O)[C@H](CCCNC(=N)N)NC(=O)[C@H](CCC(N)=O)NC(=O)[C@H](CCCNC(=N)N)NC(=O)[C@H](CCCCN)NC(=O)[C@H](C(C)C)NC(=O)[C@H](CCC(N)=O)NC(=O)[C@H](CC(N)=O)NC1=O)C(=O)N[C@@H](CCCCN)C(=O)N[C@@H](CCC(N)=O)C(=O)N[C@@H](CC(=O)O)C(=O)N[C@@H](CO)C(=O)N[C@@H](CC(=O)O)C(=O)N3)NC(=O)[C@H](C(C)C)NC2=O
Kd (LRP6 E1 domain; binding, SPR; pH 7.5): 0.0207 µM

CC[C@H](C)[C@H](NC(=O)[C@H](CCCNC(=N)N)NC(=O)[C@H](CCCCN)NC(=O)[C@@H](NC(=O)[C@H](C)NC(=O)[C@H](CCCNC(=N)N)NC(=O)[C@H](CCC(N)=O)NC(=O)[C@H](CO)NC(=O)[C@H](CCCCN)NC(=O)[C@H](CC(N)=O)NC(=O)[C@@H](N)CCCNC(=N)N)[C@@H](C)O)C(=O)N[C@@H](CO)C(=O)N[C@@H](Cc1c[nH]cn1)C(=O)N[C@@H](CCSC)C(=O)N1CCC[C@H]1C(=O)N[C@@H](CO)C(=O)N[C@@H](CCCNC(=N)N)C(=O)N1CCC[C@H]1C(=O)N[C@@H](CCC(=O)O)C(=O)N[C@@H](CC(C)C)C(=O)N[C@@H](CO)C(=O)N[C@@H](C)C(=O)N[C@H](C(=O)N[C@@H](C)C(=O)N[C@H](C(=O)N[C@@H](CC(=O)O)C(=O)N[C@@H](CC(C)C)C(=O)N[C@@H](CCCNC(=N)N)C(=O)N[C@@H](CCCCN)C(=O)N[C@@H](CC(=O)O)C(=O)N[C@@H](CCCCN)C(=O)N[C@@H](C)C(=O)N[C@@H](CCCCN)C(=O)N[C@@H](CO)C(=O)N[C@@H](CSC/C=C(\C)CC/C=C(\C)CCC=C(C)C)C(=O)OC)[C@@H](C)O)C(C)C
Kd (YWHAZ; cell-free assay, FP; pH 7.5): 7.74 µM

CC(C)C[C@H](NC(=O)CNC(=O)[C@H](C)NC(=O)[C@H](CC(=O)O)NC(=O)[C@H](CC(=O)O)NC(=O)[C@H](C)NC(=O)[C@@H]1CCCN1C(=O)[C@H](CCCCN)NC(=O)[C@H](C)NC(=O)[C@@H]1CCCN1C(=O)[C@@H]1CCCN1C(=O)[C@@H]1CCCN1C(=O)[C@H](CCC(=O)O)NC(=O)CN)C(=O)N[C@H](C(=O)O)C(C)C
Kd (F-box only protein 22 (Homo sapiens, UniProt Q8NEZ5); binding, SPR): 68 µM

CCC1C[C@H]2C(=O)N[C@@H](CCC(=O)O)C(=O)N[C@@H]([C@@H](C)O)C(=O)NCC(=O)N[C@@H](CCC(=O)O)C(=O)NC(CC)CC(=O)N[C@@H](CC(=O)O)C(=O)N2C1 (stereo partly drawn)
Kd (Kelch-like ECH-associated protein 1 (KEAP1, Homo sapiens, UniProt Q14145); binding, MST): 0.0264 µM

O=C(N[C@@H]1c2ccccc2C[C@H]1N1CCCC1)c1ccc(-c2ccnc3[nH]ccc23)nc1
Kd (Ribosomal protein S6 kinase alpha-3, N-terminal kinase domain (RPS6KA3, Homo sapiens, UniProt P51812); binding, competition with immobilised ligand): 1.65 µM

CC(=O)N[C@@H](CCCNC(=N)N)C(=O)N[C@H](C(=O)N1CCC[C@H]1C(=O)N[C@@H](COP(=O)(O)O)C(=O)N[C@@H](CC(C)C)C(=O)N1CCC[C@H]1C(=O)N[C@@H](C(=O)N1CCC[C@H]1C(c1ccccc1)c1ccccc1)C(C)C)[C@@H](C)O
Kd (YWHAZ; isothermal titration calorimetry): 5.65 ± 3.19 µM

Oc1ccc(-c2nc(-c3ccc(OC4CCCC4)cc3)no2)cc1
Kd (cspC (Clostridioides difficile, UniProt Q185C0)): 88 ± 10 µM

CC(=O)N[C@@H](Cc1ccc(O)cc1)C(=O)N[C@@H](CC(N)=O)C(=O)N1CCC[C@H]1C(=O)N[C@@H](Cc1ccccc1)C(=O)N[C@@H](CCC(=O)O)C(=O)N[C@@H](CCC(=O)O)C(=O)NCC(=O)NCC(N)=O
Kd (EH domain-containing protein 1, EH domain (Homo sapiens, UniProt Q9H4M9); binding, isothermal titration calorimetry; 20 °C, 15 mM NaCl): 9.4 ± 1.2 µM

C[C@H](N)C(=O)N[C@@H](CCCNC(=N)N)C(=O)N[C@H](C(=O)N[C@@H](CCCCN)C(=O)N[C@@H](CCC(N)=O)C(=O)N[C@H](C(=O)N[C@@H](C)C(=O)N[C@@H](CCCNC(=N)N)C(=O)N[C@@H](CCCCN)C(=O)N[C@@H](CO)C(=O)N[C@H](C(=O)NCC(=O)NCC(=O)N[C@@H](CCCCN)C(=O)N[C@@H](C)C(=O)N[C@@H](Cc1ccc(O)cc1)C(N)=O)[C@@H](C)O)[C@@H](C)O)[C@@H](C)O
Kd (Chromobox protein homolog 1, chromodomain (Homo sapiens, UniProt P83916, D59F/K43A); ITC; pH 7.4, 25 °C): 46 ± 6 µM

CC(C)C[C@@H]1NC(=O)[C@@H]2CSSC[C@@H](C(=O)NCC(=O)O)NC(=O)[C@H](Cc3ccccc3)NC(=O)CNC(=O)[C@H](CC(N)=O)NC(=O)[C@@H]3CCCN3C(=O)CNC(=O)[C@@H]3CSSC[C@H](NC(=O)[C@H](CC(C)C)NC(=O)[C@H](Cc4c[nH]cn4)NC(=O)[C@H](Cc4c[nH]cn4)NC(=O)[C@H](CCCCN)NC(=O)[C@H](C(C)C)NC(=O)[C@H](Cc4ccc(O)cc4)NC(=O)[C@H](CC(N)=O)NC(=O)[C@H](Cc4c[nH]cn4)NC(=O)[C@H](CO)NC(=O)[C@H](CCC(N)=O)NC(=O)[C@@H](NC(=O)CN)CSSC[C@H](NC(=O)CNC(=O)[C@H](C)NC1=O)C(=O)N[C@@H](C(C)C)C(=O)N3)C(=O)N[C@@H](CCCCN)C(=O)N[C@@H](CCC(N)=O)C(=O)N[C@@H](CC(=O)O)C(=O)N[C@@H](CO)C(=O)N[C@@H](CC(=O)O)C(=O)N2
Kd (LRP6 E1 domain; binding, SPR; pH 7.5): 0.00296 µM

CC(C)C[C@H](NC(=O)[C@H](CCCCN)NC(=O)CNC(=O)[C@H](Cc1ccccc1)NC(=O)[C@H](CO)NC(=O)[C@H](Cc1c[nH]c2ccccc12)NC(=O)CNC(=O)[C@@H]1CCCN1C(=O)[C@@H](N)CC(=O)O)C(=O)N[C@@H](Cc1c[nH]cn1)C(=O)N[C@H](Cc1c[nH]c2ccccc12)C(=O)N1CCC[C@@H]1C(=O)O
Kd (V-type immunoglobulin domain-containing suppressor of T-cell activation (VSIR, Homo sapiens, UniProt Q9H7M9); binding, microscale thermophoresis): 2.07 µM

C#CC[C@H](NC(=O)CNC(=O)[C@H](CO)NC(=O)[C@@H]1CCCCNC(=O)CCCC(=O)N[C@@H](CCSC)C(=O)N[C@@H](Cc2c[nH]c3ccccc23)C(=O)N2CCC[C@H]2C(=O)N[C@@H](Cc2c[nH]cn2)C(=O)N[C@@H](CCCNC(=N)N)C(=O)N[C@@H](C(C)C)C(=O)N[C@@H]([C@@H](C)O)C(=O)N[C@@H](C)C(=O)N(C)[C@@H](C)C(=O)N1)C(=O)O
Kd (Microtubule-associated protein 1 light chain 3 beta (Homo sapiens, UniProt Q9GZQ8); fluorescence polarization; together with: fluorescein-labelled peptide): 0.177 ± 0.0238 µM

A few entries again:
CC(C)C[C@H](NC(=O)[C@H](CCCCN)NC(=O)CNC(=O)[C@H](Cc1ccccc1)NC(=O)[C@H](CO)NC(=O)[C@H](Cc1c[nH]c2ccccc12)NC(=O)CNC(=O)[C@@H]1CCCN1C(=O)[C@@H](N)CC(=O)O)C(=O)N[C@@H](Cc1c[nH]cn1)C(=O)N[C@H](Cc1c[nH]c2ccccc12)C(=O)N1CCC[C@@H]1C(=O)O
Kd (V-type immunoglobulin domain-containing suppressor of T-cell activation (VSIR, Homo sapiens, UniProt Q9H7M9); binding, microscale thermophoresis): 2.07 µM

C#CC[C@H](NC(=O)CNC(=O)[C@H](CO)NC(=O)[C@@H]1CCCCNC(=O)CCCC(=O)N[C@@H](CCSC)C(=O)N[C@@H](Cc2c[nH]c3ccccc23)C(=O)N2CCC[C@H]2C(=O)N[C@@H](Cc2c[nH]cn2)C(=O)N[C@@H](CCCNC(=N)N)C(=O)N[C@@H](C(C)C)C(=O)N[C@@H]([C@@H](C)O)C(=O)N[C@@H](C)C(=O)N(C)[C@@H](C)C(=O)N1)C(=O)O
Kd (Microtubule-associated protein 1 light chain 3 beta (Homo sapiens, UniProt Q9GZQ8); fluorescence polarization; together with: fluorescein-labelled peptide): 0.177 ± 0.0238 µM
